# Measurements pooled from the literature.
# Numbered parts are unrelated; each lists some results of a single study.

# Sample 1 — method: RNA Bind-n-Seq; molecule type: RNA; medium: in vitro; concentration: 200 nM; setting: whole 134-nt RNA, ends assumed; added: 150 mM LiCl; relative to: input library; direction: higher = stronger binding; library: 7-deaza-guanosine replaces G
# Target: Fragile X messenger ribonucleoprotein 1, C-terminal low-complexity region (Fmr1, Mus musculus, UniProt P35922)
# Constant ends, left off below: GGGAGUUCUACAGUCCGACGAUC … UGGAAUUCUCGGGUGUCAAGG
Oligonucleotide,log2 enrichment
GUCCUGUGCUACACAUCGUAUGUACCGAAUCGGGGAAAAAGGGGAGGGGAAAAAGGGGAAAGUAUUAUGUUACGCCGUUCGGAUCUGCAC,0.883
AGUCCUGUGCUACACAUCGUAUGUACCGAAUCGGGGAAAAAGGGAAAAAGGAAAAAGGAAAGUAUUAUGUUACGCCGUUCGGAUCUGCAC,-0.57
GUCCUGUGCUACACAUCGUAUGUACCGAAUCGGGGCCCCCGGGCCCCCGGCCCCCGGGAAAGUAUUAUGUUACGCCGUUCGGAUCUGCAC,-2.33
UCCUGUGCUACACAUCGUAUGUACCGAAUCGGGGAAAGGGGAAAGGGGUUUUUUUGGGGAAAGUAUUAUGUUACGCCGUUCGGAUCUGCA,0.891
GUCCUGUGCUACACAUCGUAUGUACCGAAUCGGGGUGGGGUUUUUUUGGGGUUUGGGGAAAGUAUUAUGUUACGCCGUUCGGAUCUGCAC,0.36
UCUGAGGUCACCAAGCCUCCUCCUUGCUUGGAGAACUCCUCGCCUCCCUCCAGGAUUCCGGAGCCUGAAUCCCCAGCGAAGCCAAACGUC,1.53
CACAGACAACACGCACCCACACAGACACAGAGGGAAGGGGUCGGGAUGGGGACAGGGUGCACAGCAGGGCGGGGUAGGACCCCAGCCCCU,-0.279
UCCUGUGCUACACAUCGUAUGUACCGAAUCGGAAAAAAGGGGAAAAAAGGAAAAAAGGGGAAAGUAUUAUGUUACGCCGUUCGGAUCUGC,-0.67
UCAAGUCCUGUGCUACACAUCGUAUGUACCGAAUCGGUUUGGUUUUUGGAAAGGAAAGUAUUAUGUUACGCCGUUCGGAUCUGCACUUCC,-0.545
GCAGGAAGUAAAAACAAAUGGAAAUUCUUCGGAUAGUGGCAGGGGUGGGGGUUGCUAAGGAAAGGGUGGGAUGGGAGUGGGUAAAGAGUU,1.58

# Sample 2 — method: protein binding microarray; molecule type: double-stranded DNA, one strand shown; medium: in vitro; concentration: not given; relative to: not given; direction: higher = stronger binding
# Target: Histone acetyltransferase KAT6A, winged helix 1, GST fusion (KAT6A, Homo sapiens, UniProt Q92794, residues 1-85)
# Setting: 8-mer, flanks averaged, mean of 2 arrays, mostly near background
# Construct (chain): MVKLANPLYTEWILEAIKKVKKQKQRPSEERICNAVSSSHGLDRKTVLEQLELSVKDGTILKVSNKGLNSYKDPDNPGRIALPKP
Oligonucleotide,E-score
ATCTCCGA,0.0343
AAACAGAT,-0.12
ATCACTGG,-0.157
AGTGCAAG,-0.114
CGAATCCC,0.044
ACAACACT,-0.202
CCCTCGGA,0.125
GTGAAAGA,-0.139
CCCTACGG,0.299

# Sample 3 — method: RNA Bind-n-Seq; molecule type: RNA; medium: in vitro; concentration: 365 nM; relative to: no-protein control; direction: higher = stronger binding
# Target: RNA binding protein fox-1 homolog 2, RRM domain, GST-SBP tag (RBFOX2, Homo sapiens, UniProt O43251-10, residues 100-194)
# Setting: natural RNA segment, single round, ends assumed
# Constant ends, left off below: GGGAGUUCUACAGUCCGACGAUC … UGGAAUUCUCGGGUGCCAA
# Construct (chain): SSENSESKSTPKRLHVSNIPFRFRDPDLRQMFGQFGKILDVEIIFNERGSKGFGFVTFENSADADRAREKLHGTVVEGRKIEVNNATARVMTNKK
Oligonucleotide,RBNS enrichment (R)
GCCUAACCACACAGCCACCUGCCCUAAGUGACAUUGUGUUUUUAGGUGUCACCGUCUUAGCCCUUUGUUUUCCUUACUAGAGUAUCUUUCCCGCACCCCUAGGUUUGUAU,0.918
CAUAAACAUGACAGGCUUUUGGACUUUGUAUUACCUGUAUGUUUUAUAAUGGAUCAUGCAUAAUUUCUCAGGAGAAUAAAAUGAGAAUUCAUAUAUACGUUCAUCUUUCA,1.3
AGAUAUAUGCACACAGGGUGCAAGUUAAAAGCUACAGAGUGAAAGUUGGUUUGGAUCCUCUUCAUUUCAUUUGUUUAGCUUUUCUGUUAUUUUUCUCUACUUACAUGUAU,1.12
GGACAUCGGGACACCGAGAUAGCAUUUUUAGUACCAAUAAGAGACCUGAGAAUGGCCGGAGACCUCAGAUAUGUGUCUCUGCCAGUUGACUGGGCUGGUCCCUCUCAUUU,1.95
CGCUGUGCUCAGAUGCUGACGAGACUCCUUUGCUAGACUCCCCUAGUUAGGGCCUCUGCAGCUUAUGGUGGCUUAAAAUGGAGAGAGCAUCUUGCCUGGCCGAGUGUUUG,0.929
ACCCUUUUUAAAUCACAGAAAUAAAGUUUCAGUUGUCUCAAGAGACAUUAAUCAGGAAUACAGAAUGCAGGUCUUCACAUUUACAGGAAGAGCACCUUGUAUAGUAGGUC,0.442
ACGACUCCAGUGUCAGAGCAGGGCCACCUGGGGUGUGUAGGAUGGGUACAGGGUUCCCAGCCUCAGGUUCCUGGAGGCCAAUGUCCAGCAAGAUCAUGCCUUCUCUGUCU,0.359
CAGAGGAGUUUGAUAAUGUGCACGAGGGCACACUGCUAGUAAAUAACAUUAAAAUAACUGGAAUGAACUCCUGAUCCCAAAGCCUAUUGUGUUUUCAACACAAGGUAAUA,2.21

# Further values, each from its own experiment
Substance,target,assay,test system,conditions,how to read,quantity,value
"PhoQ, residues 284 288 289 292 302 303 ALVSVA","PhoP, residues 12 14 15 18 19 YHFSH (Escherichia coli, UniProt P23836)","Sort-seq, refers to: YFP reporter",E. coli,"PhoQ-PhoP variant library, added: 10 µM Mg2+","relative to: high Mg2+ state, higher = stronger signaling",fold induction,1.98

# Some of these lines once more (sample 1):
Oligonucleotide,log2 enrichment
AGUCCUGUGCUACACAUCGUAUGUACCGAAUCGGGGAAAAAGGGAAAAAGGAAAAAGGAAAGUAUUAUGUUACGCCGUUCGGAUCUGCAC,-0.57
UCCUGUGCUACACAUCGUAUGUACCGAAUCGGAAAAAAGGGGAAAAAAGGAAAAAAGGGGAAAGUAUUAUGUUACGCCGUUCGGAUCUGC,-0.67
GCAGGAAGUAAAAACAAAUGGAAAUUCUUCGGAUAGUGGCAGGGGUGGGGGUUGCUAAGGAAAGGGUGGGAUGGGAGUGGGUAAAGAGUU,1.58
